Measurements collected from several papers.
Each line is one published result; not all experiments were run side by side. Several values in a cell are separate wells, animals, samples, runs or records. pEC50, pIC50: −log10 of the molar value.
Organism: Schistosoma mansoni

| Structure (SMILES) | assay | system | setting | how to read | quantity | value |
| --- | --- | --- | --- | --- | --- | --- |
| CC1=C(Cn2cc(CN3CCNCC3)nn2)C(=O)c2ccccc2C1=O | – | adult worms | 10 µM, 72 h | – | killing | 46.2% |
| O=C(C1CCC(F)(F)CC1)N1CC(=O)N2CCc3ccccc3[C@@H]2C1 | – | adult worms | 4 h | – | pEC50 | 5.70 |
| CN1CCN(c2ncc(-c3ccc4nncc(Nc5cnccn5)c4c3)cn2)CC1 | – | adult worms | 10 µM, 24 h | direction not given | phenotypic severity score | 0 |
| CCS(=O)(=O)N1CCC2(CC1)NC(=O)N(c1ccc(F)c(C(F)(F)F)c1)C2=O | – | NMRI mice, infected | oral, 100 mg/kg single dose, 21 days post-treatment, treated day 49 post-infection | – | worm burden reduction | 26% |
| CN1CCN(c2ccc(-c3ccc4c(Nc5cnccn5)cnnc4c3)cc2)CC1 | – | adult worms | 10 µM, 24 h | direction not given | phenotypic severity score | 0 |
| CC(C)(C)CNc1nc(-c2cccs2)nc(Cl)c1-c1c(F)cc(C#N)cc1F | worm motility | adult worms ex vivo | 24 h | – | pEC50 | > 6.52 |
| CC1=C(Cc2cn(CCN3CCOCC3)nn2)C(=O)c2ccccc2C1=O | – | adult worms | 25 µM, 24 h | – | killing | 40.3% |
| COc1ccc(Nc2cnnc3ccc(-c4cnc(N5CCCN(C)CC5)nc4)cc23)cc1 | – | adult worms | 10 µM, 48 h | direction not given | phenotypic severity score | 1 |
| CC1(CNc2nc(-c3cccs3)nc(Cl)c2-c2c(F)cc(N)cc2F)COC1 | motility | adult worms, ex vivo | 24 h | – | pEC50 | 7.43 |
| CC1(C(F)(F)F)NC(=O)N(c2ccc(F)c(C(F)(F)F)c2)C1=O (centres unmarked) | – | juvenile, infected mice | oral, 100 mg/kg single dose | – | worm burden reduction | 62 to 100% and 99% |
| CC(C)C(=O)Nc1nc(-c2cccs2)nc(Cl)c1-c1c(F)cc(F)cc1F | worm motility | adult worms ex vivo | 24 h | – | pEC50 | < 5.30 |
| CC1(C)NC(=O)N(c2cccc(C(F)(F)F)n2)C1=O | – | NMRI mice, infected | oral, 100 mg/kg single dose, 21 days post-treatment, treated day 49 post-infection | – | worm burden reduction | 4% |
| O=C1c2ccccc2C23C(=O)Nc4ccccc4C2(O)CCN13 (centres unmarked) | – | adult worms | ex vivo | – | pIC50 | 4.89 |
| CC1(CNc2nc(-c3cccs3)nc(Cl)c2-c2c(F)cc([N+](=O)[O-])cc2F)COC1 | worm motility | adult worms ex vivo | 24 h | – | pEC50 | 5.67 |
| CC1=C(Cc2cn(CCN3CCC(=O)CC3)nn2)C(=O)c2ccccc2C1=O | – | adult worms | 25 µM, 24 h | – | killing | 46.5% |
| O=C(C1CCCCC1)N1CC(=O)N2CCc3ccccc3C2C1 (centres unmarked) | – | mice | 100 mg/kg daily x4, 1176 h, dosed day 7, perfused 49 | relative to: vehicle | male worm burden reduction | 44% |
| CC(C)[C@@H](C)Nc1nc(-c2cccs2)nc(Cl)c1-c1c(F)cc([N+](=O)[O-])cc1F | worm motility | adult worms ex vivo | 24 h | – | pEC50 | > 6.52 |
| CC1(C(F)F)NC(=O)N(c2ccc(F)c(C(F)(F)F)c2)C1=O (centres unmarked) | – | juvenile, infected mice | oral, 100 mg/kg single dose | – | worm burden reduction | 62 to 100% and 62% |

| Structure (SMILES) | assay | system | setting | how to read | quantity | value |
| --- | --- | --- | --- | --- | --- | --- |
| Fc1cc(F)c(-c2c(Cl)nc(-c3cccs3)nc2NC2CC2)c(F)c1 | worm motility | adult worms ex vivo | 24 h | – | pEC50 | < 5.30 |
| COc1ccc(Nc2cnnc3ccc(-c4cnc(N5CCN(C)CC5)nc4)cc23)cc1 | – | adult worms | 10 µM, 48 h | direction not given | phenotypic severity score | 1 |
| CC1(C)NC(=O)N(c2ccc(F)c(Br)c2)C1=O | – | juvenile, infected mice | oral, 100 mg/kg single dose | – | worm burden reduction | 29% |
| CC1=C(Cn2cc(CN)nn2)C(=O)c2ccccc2C1=O | – | adult worms | 25 µM, 48 h | – | killing | 50% |
| N#Cc1cc(F)c(-c2c(Cl)nc(-c3cccs3)nc2NCC2CCC2)c(F)c1 | motility | adult worms, ex vivo | 24 h | – | pEC50 | 6.55 |
| CN1CCCN(c2ncc(-c3ccc4nncc(Nc5cnccn5)c4c3)cn2)CC1 | – | adult worms | 10 µM, 1 h | direction not given | phenotypic severity score | 0 |
| CC1=C(Cn2cc(COC3COC3)nn2)C(=O)c2ccccc2C1=O | – | adult worms | 25 µM, 72 h | – | killing | 52.9% |
| Nc1nc(-c2cccs2)nc(Cl)c1-c1c(F)cc(F)cc1F | worm motility | adult worms ex vivo | 24 h | – | pEC50 | < 5.30 |
| CC1=C(Cn2cc(CN3CCSC3)nn2)C(=O)c2ccccc2C1=O | – | adult worms | 25 µM, 72 h | – | killing | 51.9% |
| CN1CCN(c2ccc(-c3ccc4c(Nc5ncccn5)cnnc4c3)cc2)CC1 | – | adult worms | 10 µM, 24 h | direction not given | phenotypic severity score | 0 |
| CC1(C)NC(=O)N(c2cc(C(F)(F)F)c(F)cc2C#N)C1=O | – | NMRI mice, infected | oral, 100 mg/kg single dose, 21 days post-treatment, treated day 49 post-infection | – | worm burden reduction | 14% |
| CC1=C(Cc2cn(CC#N)nn2)C(=O)c2ccccc2C1=O | – | adult worms | 10 µM, 72 h | – | killing | 45.4% |
| COc1ccc(Nc2cnnc3ccc(-c4ccc(N5CCN(C)CC5)cc4)cc23)cc1 | – | adult worms | 10 µM, 48 h | direction not given | phenotypic severity score | 4 |
| CC1(C)NC(=O)N(c2ccc(F)c(CC(F)(F)F)c2)C1=O | – | adult, infected mice | 10 mg/kg | – | worm burden reduction | 100% |
| COc1ccc(Nc2cnnc3ccc(-c4ccc(S(=O)(=O)N5CCN(C)CC5)cc4)cc23)cc1Cl | – | adult worms | 10 µM, 1 h | direction not given | phenotypic severity score | 1 |
| CC1=C(Cn2cnc([N+](=O)[O-])n2)C(=O)c2ccccc2C1=O | – | adult worms | 10 µM, 24 h | – | killing | 38% |
| CC1(C)NC(=O)N(c2ccc(F)c(C(C)(F)F)c2)C1=O | – | adult, infected NMRI mice | oral, 100 mg/kg single dose | – | worm burden reduction | 98% |

Some of these lines once more:
| Structure (SMILES) | assay | system | setting | how to read | quantity | value |
| --- | --- | --- | --- | --- | --- | --- |
| CC1(C)NC(=O)N(c2ccc(F)c(CC(F)(F)F)c2)C1=O | – | adult, infected mice | 10 mg/kg | – | worm burden reduction | 100% |
| COc1ccc(Nc2cnnc3ccc(-c4ccc(S(=O)(=O)N5CCN(C)CC5)cc4)cc23)cc1Cl | – | adult worms | 10 µM, 1 h | direction not given | phenotypic severity score | 1 |
| CC1=C(Cn2cnc([N+](=O)[O-])n2)C(=O)c2ccccc2C1=O | – | adult worms | 10 µM, 24 h | – | killing | 38% |
